Measurements gathered from unrelated publications.
HLA class I histocompatibility antigen, A alpha chain: HLA class I histocompatibility antigen, A alpha chain (Homo sapiens, UniProt P04439)
NEU1: Sialidase-1 (NEU1, Homo sapiens, UniProt Q99519)
Proteasome component C5/PSMB5 chymotrypsin-like site: Proteasome component C5/PSMB5, chymotrypsin-like site (Homo sapiens, UniProt P20618+P28074)
Chain of UniProt P28074 (whole entry, looked up): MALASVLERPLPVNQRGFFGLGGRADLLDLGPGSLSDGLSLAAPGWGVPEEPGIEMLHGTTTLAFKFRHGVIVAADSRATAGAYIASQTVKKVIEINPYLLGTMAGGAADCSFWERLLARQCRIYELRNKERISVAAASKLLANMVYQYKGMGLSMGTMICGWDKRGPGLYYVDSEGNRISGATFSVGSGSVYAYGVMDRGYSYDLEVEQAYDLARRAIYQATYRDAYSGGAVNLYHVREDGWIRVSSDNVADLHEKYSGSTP
Chain of UniProt P20618 (whole entry, looked up): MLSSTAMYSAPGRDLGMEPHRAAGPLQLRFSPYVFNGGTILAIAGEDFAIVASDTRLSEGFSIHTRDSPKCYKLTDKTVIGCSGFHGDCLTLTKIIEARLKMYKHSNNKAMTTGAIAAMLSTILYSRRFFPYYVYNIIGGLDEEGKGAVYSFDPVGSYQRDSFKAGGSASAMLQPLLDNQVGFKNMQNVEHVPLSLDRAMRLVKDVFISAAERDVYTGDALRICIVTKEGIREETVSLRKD
DPP4: Dipeptidyl peptidase 4 (DPP4, Homo sapiens, UniProt P27487)
Chain of UniProt P27487 (whole entry, looked up): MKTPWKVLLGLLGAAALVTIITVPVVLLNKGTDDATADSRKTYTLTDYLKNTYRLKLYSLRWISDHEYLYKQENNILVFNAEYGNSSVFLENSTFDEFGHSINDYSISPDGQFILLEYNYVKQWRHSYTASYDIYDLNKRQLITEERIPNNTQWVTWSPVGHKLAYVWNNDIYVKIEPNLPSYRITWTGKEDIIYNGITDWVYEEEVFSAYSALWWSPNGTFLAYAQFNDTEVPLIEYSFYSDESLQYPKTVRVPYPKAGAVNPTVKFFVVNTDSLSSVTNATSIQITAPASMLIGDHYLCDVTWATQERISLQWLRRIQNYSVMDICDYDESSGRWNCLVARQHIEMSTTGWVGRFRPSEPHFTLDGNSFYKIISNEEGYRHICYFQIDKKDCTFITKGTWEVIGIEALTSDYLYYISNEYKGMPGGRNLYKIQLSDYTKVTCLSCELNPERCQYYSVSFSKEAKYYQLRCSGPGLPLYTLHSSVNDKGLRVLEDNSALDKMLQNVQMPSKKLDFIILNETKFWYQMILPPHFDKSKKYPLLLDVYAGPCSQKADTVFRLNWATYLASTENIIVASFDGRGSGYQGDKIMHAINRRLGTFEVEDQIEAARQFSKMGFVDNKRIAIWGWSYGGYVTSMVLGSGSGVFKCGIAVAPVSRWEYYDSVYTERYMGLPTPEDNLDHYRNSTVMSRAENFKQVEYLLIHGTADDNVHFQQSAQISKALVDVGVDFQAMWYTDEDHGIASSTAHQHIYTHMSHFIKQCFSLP
CASP3: Caspase-3 (CASP3, Homo sapiens, UniProt P42574)
Chain of UniProt P42574 (whole entry, looked up): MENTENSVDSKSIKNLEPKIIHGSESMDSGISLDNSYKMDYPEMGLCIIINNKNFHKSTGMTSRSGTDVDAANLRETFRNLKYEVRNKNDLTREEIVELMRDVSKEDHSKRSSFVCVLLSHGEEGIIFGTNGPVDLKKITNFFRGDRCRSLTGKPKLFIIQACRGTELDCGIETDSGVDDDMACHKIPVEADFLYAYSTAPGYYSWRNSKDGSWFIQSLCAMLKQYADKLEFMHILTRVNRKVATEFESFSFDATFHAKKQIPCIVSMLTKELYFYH
SBK3: Uncharacterized serine/threonine-protein kinase SBK3 (SBK3, Homo sapiens, UniProt P0C264)
Chain of UniProt P0C264 (whole entry, looked up): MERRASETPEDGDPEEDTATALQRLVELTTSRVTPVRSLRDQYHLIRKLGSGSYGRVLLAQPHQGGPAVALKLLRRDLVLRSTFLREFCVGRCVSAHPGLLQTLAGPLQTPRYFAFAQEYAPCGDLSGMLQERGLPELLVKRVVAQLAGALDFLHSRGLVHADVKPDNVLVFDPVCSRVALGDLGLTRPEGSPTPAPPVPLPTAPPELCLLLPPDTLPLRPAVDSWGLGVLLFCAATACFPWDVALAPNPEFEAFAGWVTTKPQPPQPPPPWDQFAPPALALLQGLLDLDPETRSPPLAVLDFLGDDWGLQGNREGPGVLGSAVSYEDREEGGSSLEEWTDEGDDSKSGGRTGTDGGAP
Chain of UniProt Q9UGM1 (whole entry, looked up): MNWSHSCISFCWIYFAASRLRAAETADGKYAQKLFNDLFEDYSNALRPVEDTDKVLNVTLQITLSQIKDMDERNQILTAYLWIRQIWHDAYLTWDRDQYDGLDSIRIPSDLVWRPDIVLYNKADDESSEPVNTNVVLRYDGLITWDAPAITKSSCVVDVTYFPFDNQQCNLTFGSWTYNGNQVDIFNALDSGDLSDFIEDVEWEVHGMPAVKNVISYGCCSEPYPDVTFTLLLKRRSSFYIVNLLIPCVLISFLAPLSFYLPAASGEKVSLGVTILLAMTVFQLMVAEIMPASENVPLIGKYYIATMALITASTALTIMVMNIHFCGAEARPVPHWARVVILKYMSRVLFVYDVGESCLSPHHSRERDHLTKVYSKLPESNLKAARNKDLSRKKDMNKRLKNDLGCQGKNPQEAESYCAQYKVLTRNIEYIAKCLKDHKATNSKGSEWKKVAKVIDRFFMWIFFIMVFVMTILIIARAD
Chain of UniProt O60911 (whole entry, looked up): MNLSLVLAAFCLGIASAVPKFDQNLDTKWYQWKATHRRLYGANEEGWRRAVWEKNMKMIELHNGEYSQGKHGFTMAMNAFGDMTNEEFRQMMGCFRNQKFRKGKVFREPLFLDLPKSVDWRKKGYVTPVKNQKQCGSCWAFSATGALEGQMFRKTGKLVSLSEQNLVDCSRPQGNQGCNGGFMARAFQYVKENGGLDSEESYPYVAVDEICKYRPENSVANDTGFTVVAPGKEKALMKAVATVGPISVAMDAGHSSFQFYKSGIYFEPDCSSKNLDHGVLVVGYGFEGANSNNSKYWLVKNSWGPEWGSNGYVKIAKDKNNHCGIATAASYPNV
Chain of UniProt Q6XUX3 (whole entry, looked up): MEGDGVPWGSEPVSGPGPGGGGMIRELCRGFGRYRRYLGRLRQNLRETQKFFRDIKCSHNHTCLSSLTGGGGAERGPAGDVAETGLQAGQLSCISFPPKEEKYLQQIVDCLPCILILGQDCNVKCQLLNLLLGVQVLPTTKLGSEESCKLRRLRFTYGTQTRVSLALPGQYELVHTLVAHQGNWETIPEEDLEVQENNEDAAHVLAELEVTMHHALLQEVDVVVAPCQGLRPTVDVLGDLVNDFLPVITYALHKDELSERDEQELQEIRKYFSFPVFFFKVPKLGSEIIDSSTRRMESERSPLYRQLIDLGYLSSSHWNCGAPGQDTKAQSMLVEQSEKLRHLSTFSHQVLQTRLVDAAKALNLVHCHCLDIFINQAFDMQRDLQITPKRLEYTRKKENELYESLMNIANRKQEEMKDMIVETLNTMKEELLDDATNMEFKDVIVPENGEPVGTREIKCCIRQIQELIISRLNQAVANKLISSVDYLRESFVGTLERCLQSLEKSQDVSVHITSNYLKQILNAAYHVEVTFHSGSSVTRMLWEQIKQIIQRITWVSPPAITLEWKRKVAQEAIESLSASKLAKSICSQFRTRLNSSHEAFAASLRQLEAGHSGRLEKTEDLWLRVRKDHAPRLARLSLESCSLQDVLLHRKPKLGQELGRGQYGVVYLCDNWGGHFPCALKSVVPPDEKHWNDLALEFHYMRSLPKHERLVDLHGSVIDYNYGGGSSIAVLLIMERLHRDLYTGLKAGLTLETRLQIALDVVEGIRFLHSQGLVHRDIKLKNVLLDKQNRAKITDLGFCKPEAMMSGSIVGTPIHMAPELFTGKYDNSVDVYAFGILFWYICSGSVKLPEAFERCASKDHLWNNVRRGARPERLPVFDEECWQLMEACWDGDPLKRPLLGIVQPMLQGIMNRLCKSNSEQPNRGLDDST
Chain of UniProt Q93009 (whole entry, looked up): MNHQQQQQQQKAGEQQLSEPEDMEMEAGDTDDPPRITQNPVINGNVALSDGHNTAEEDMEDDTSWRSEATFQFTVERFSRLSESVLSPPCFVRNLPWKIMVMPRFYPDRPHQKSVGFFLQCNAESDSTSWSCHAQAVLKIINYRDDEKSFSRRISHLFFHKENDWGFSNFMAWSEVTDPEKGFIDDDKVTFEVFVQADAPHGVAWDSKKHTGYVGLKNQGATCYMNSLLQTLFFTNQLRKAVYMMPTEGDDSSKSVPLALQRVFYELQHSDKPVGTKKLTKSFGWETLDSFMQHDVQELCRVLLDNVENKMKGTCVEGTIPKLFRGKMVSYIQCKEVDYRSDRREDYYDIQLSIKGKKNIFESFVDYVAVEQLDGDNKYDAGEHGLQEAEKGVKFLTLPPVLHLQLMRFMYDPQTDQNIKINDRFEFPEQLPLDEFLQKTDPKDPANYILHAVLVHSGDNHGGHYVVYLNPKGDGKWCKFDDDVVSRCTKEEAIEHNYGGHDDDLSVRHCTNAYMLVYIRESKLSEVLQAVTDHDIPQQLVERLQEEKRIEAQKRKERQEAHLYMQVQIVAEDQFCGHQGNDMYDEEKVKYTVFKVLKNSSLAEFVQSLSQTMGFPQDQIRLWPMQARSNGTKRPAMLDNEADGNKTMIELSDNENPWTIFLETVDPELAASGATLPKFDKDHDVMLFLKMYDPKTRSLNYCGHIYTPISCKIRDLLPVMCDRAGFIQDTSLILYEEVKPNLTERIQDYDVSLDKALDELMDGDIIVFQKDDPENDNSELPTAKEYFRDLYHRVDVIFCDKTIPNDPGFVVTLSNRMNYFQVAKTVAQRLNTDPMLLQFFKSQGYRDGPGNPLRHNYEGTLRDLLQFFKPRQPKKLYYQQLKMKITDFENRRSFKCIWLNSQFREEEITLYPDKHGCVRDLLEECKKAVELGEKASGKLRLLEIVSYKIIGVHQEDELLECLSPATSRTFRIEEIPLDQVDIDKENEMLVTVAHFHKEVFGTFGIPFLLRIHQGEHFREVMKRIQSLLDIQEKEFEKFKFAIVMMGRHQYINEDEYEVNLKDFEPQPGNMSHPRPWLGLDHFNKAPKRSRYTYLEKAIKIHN

Compound	target	test	conditions	measurement	result
CSCC[C@H](NC(=O)[C@@H](N)CCCNC(=N)N)C(=O)N[C@@H](Cc1c[nH]c2ccccc12)C(=O)N[C@@H](CO)C(=O)N[C@@H](CCCCN)C(=O)N1CCC[C@H]1C(=O)N[C@@H](CC(C)C)C(=O)N[C@@H](CCC(N)=O)C(=O)N[C@@H](Cc1ccccc1)C(=O)O	HLA class I histocompatibility antigen, A alpha chain	cell-free assay		IC50	35 nM
CC(C)(C)NC(=O)N[C@H]1[C@H]([C@H](O)[C@H](O)CO)OC(C(=O)O)=C[C@@H]1O	NEU1	enzyme activity, inhibitor		IC50	> 500000 nM
COc1ccc(C[C@H](NC(=O)[C@H](C)NC(=O)c2ccc(-c3ccccc3)cc2)C(=O)N[C@@H](CC(C)C)C(=O)C(=O)Nc2ccccc2)cc1	Proteasome component C5/PSMB5 chymotrypsin-like site	enzyme activity in cells, inhibitor		IC50	126 nM
CC[C@H](C)[C@H](NC(=O)[C@@H](NC(=O)[C@H](CCCCN)NC(=O)[C@H](Cc1c[nH]cn1)NC(=O)[C@H](Cc1ccc(O)cc1)NC(=O)[C@H](CCSC)NC(=O)[C@@H](N)CCCNC(=N)N)C(C)C)C(=O)N[C@H](C(=O)N[C@@H](Cc1ccccc1)C(=O)O)[C@@H](C)O	HLA class I histocompatibility antigen, A alpha chain	cell-free assay		IC50	29 nM
CCC(C(=O)Nc1cc(NC2COC2)ccc1C)n1cc(Br)cc2nc(SCc3ccc(F)cc3)nc1-2 (centres unmarked)	Cathepsin B (CTSB, Homo sapiens, UniProt P07858)	enzyme activity, inhibitor		IC50	> 100000 nM
CSCC[C@H](NC(=O)[C@@H]1CCCN1C(=O)[C@@H](NC(=O)[C@@H]1CCCN1C(=O)[C@@H](N)C(C)C)C(C)C)C(=O)O	DPP4	enzyme activity, inhibitor, absorbance	pH 8	IC50	99900 nM
CCC(C(=O)Nc1cc(NC2CCNC2)ccc1C)n1cc(Br)cc2nc(SCc3ccc(F)cc3)nc1-2 (centres unmarked)	USP7 (Homo sapiens, UniProt Q93009)	enzyme activity, inhibitor		IC50	> 100000 nM
Nc1ncc(-c2nc(N3CCOCC3)nc(N3CCOCC3)n2)c(C(F)F)n1	Receptor-type tyrosine-protein kinase FLT3, autoinhibited (FLT3, Homo sapiens, UniProt P36888)	binding, competition with immobilised ligand	10 µM	remaining binding	50%
CC(C)CCC(=O)N[C@H]1[C@H]([C@H](O)[C@H](O)CO)OC(C(=O)O)=C[C@@H]1O	NEU1	enzyme activity, inhibitor		IC50	700 nM
CSCC[C@H](NC(=O)[C@H](CCC(N)=O)NC(=O)[C@@H](N)CCCCN)C(=O)NCC(=O)N[C@@H](Cc1c[nH]cn1)C(=O)N[C@@H](CC(C)C)C(=O)N[C@@H](CC(C)C)C(=O)N[C@H](C(=O)N[C@@H](Cc1ccccc1)C(=O)O)[C@@H](C)O	HLA class I histocompatibility antigen, A alpha chain	cell-free assay		IC50	1050 nM
CCC(C(=O)Nc1cc(NC2CCOCC2)ccc1C)n1cc(Br)cc2nc(SCc3ccc(F)cc3)nc1-2 (centres unmarked)	CASP3	enzyme activity, inhibitor		IC50	> 100000 nM
CC(C)[C@H](N)C(=O)N1CCC[C@H]1C(=O)N[C@H](C(=O)N1CCC[C@H]1C(=O)N[C@@H](C)C(=O)O)C(C)C	DPP4	enzyme activity, inhibitor, absorbance	pH 8	IC50	98100 nM
CCCC(=O)NCCCN1CCc2c([nH]c3ccc(Cl)cc23)C1	DAT (Drosophila melanogaster, UniProt Q7K4Y6, del162-202/L415A/V74A)	transporter uptake, inhibitor		IC50	120000 nM
CC(C)C[C@H](NC(=O)OCc1ccccc1)C(=O)N[C@@H](CC(C)C)C(=O)N[C@@H](CC(C)C)C(=O)C(=O)Nc1cccc2cnccc12	Proteasome component C5/PSMB5 chymotrypsin-like site	enzyme activity in cells, inhibitor		IC50	63.1 nM
CC(C)C[C@H](NC(=O)[C@H](CCC(=O)O)NC(=O)[C@H](CC(C)C)NC(=O)[C@@H]1CCCN1C(=O)[C@H](CCCCN)NC(=O)[C@H](CO)NC(=O)[C@H](Cc1ccc(O)cc1)NC(=O)[C@@H](NC(=O)[C@@H](N)Cc1ccc(O)cc1)[C@@H](C)O)C(=O)O	HLA class I histocompatibility antigen, A alpha chain	cell-free assay		IC50	666 nM
Cn1nccc1[C@]1(CNC(=O)c2ccc(F)c(F)c2-c2ccc(C(F)(F)F)cc2)NC(=O)NC1=O	CASP3	enzyme activity, inhibitor		IC50	> 100000 nM

Compound	target	test	conditions	measurement	result
O=C(O)C(F)(F)C(F)(F)C(F)(F)C(F)(F)C(F)(F)C(F)(F)C(F)(F)F	AKR1C2 (Homo sapiens, UniProt P52895)	enzyme activity, inhibitor, fluorescence		IC50	206 nM
CN(C(=O)CC(C)(C)C)[C@H]1[C@H]([C@H](O)[C@H](O)CO)OC(C(=O)O)=C[C@@H]1O	NEU1	enzyme activity, inhibitor		IC50	290000 nM
Cc1nn(C)cc1-c1nc2c(N3CCN(Cc4ccc(Cl)cc4)CC3)c(Cl)cnc2[nH]1	SBK3	binding, competition with immobilised ligand	1 µM	remaining binding	15%
CCC(C(=O)Nc1cc(NC2CNC2)ccc1C)n1cccc2nc(SCc3ccc(F)cc3)nc1-2 (centres unmarked)	Prothrombin (F2, Homo sapiens, UniProt P00734)	enzyme activity, inhibitor		IC50	> 100000 nM
c1csc(-c2noc(C[C@H]3CN4CCC3CC4)n2)c1	CHRNA9 (Homo sapiens, UniProt Q9UGM1)	ion current, two-electrode voltage clamp	oocytes	IC50	2600 nM
CC(C)C[C@H](NC(=O)[C@@H](N)CCCCN)C(=O)N[C@@H](Cc1ccccc1)C(=O)N1CCC[C@H]1C(=O)N[C@@H](Cc1c[nH]cn1)C(=O)N[C@@H](Cc1ccccc1)C(=O)N[C@@H](Cc1ccc(O)cc1)C(=O)N[C@@H](CCCNC(=N)N)C(=O)N[C@@H](Cc1ccccc1)C(=O)O	HLA class I histocompatibility antigen, A alpha chain	cell-free assay		IC50	88 nM
CN1C(=O)[C@@]23C[C@]4([C@]56C[C@@]78SS[C@@](CO)(C(=O)N7[C@H]5Nc5ccccc56)N(C)C8=O)c5ccccc5N[C@@H]4N2C(=O)[C@]1(CO)SS3	NSD3 (Homo sapiens, UniProt Q9BZ95)	enzyme activity, inhibitor		IC50	46.9 nM
[2H]c1c([2H])c([C@]2([2H])CCCN2C(=O)C(C)(C)Oc2ccc3cn[nH]c3c2)c([2H])c([2H])c1C([2H])([2H])[2H]	DSTYK (Homo sapiens, UniProt Q6XUX3)	binding, competition with immobilised ligand	1 µM	remaining binding	93%
CC[C@H](C)[C@H](NC(=O)[C@@H](N)CCCNC(=N)N)C(=O)N[C@@H](Cc1ccccc1)C(=O)NCC(=O)N[C@@H](Cc1c[nH]cn1)C(=O)N1CCC[C@H]1C(=O)N[C@@H](Cc1c[nH]cn1)C(=O)N[C@@H](CC(C)C)C(=O)N[C@@H](Cc1ccccc1)C(=O)O	HLA class I histocompatibility antigen, A alpha chain	cell-free assay		IC50	363 nM
CC(C)C[C@H](NC(=O)[C@H](Cc1c[nH]c2ccccc12)NC(=O)[C@H](C)NC(=O)OCc1ccccc1)C(=O)C(=O)Nc1ccccc1	Proteasome component C5/PSMB5 chymotrypsin-like site	enzyme activity in cells, inhibitor		IC50	148 nM
CC(C)C[C@H](NC(=O)[C@H]1O[C@@H]1C(=O)O)C(=O)NCCCCN=C(N)N	Cathepsin L2 (CTSV, Homo sapiens, UniProt O60911)	enzyme activity, inhibitor		IC50	3.3 nM
CC(C)[C@H](NC(=O)[C@H](Cc1c[nH]cn1)NC(=O)[C@H](CCC(=O)O)NC(=O)[C@H](Cc1ccccc1)NC(=O)[C@H](CCC(N)=O)NC(=O)[C@H](C)N)C(=O)N1CCC[C@H]1C(=O)N[C@@H](CCC(N)=O)C(=O)N[C@@H](Cc1ccc(O)cc1)C(=O)O	HLA class I histocompatibility antigen, A alpha chain	cell-free assay		IC50	100 nM
O=C(O)C1=C[C@H](O)[C@@H](NCc2ccc(-c3ccccc3)cc2)[C@H]([C@H](O)[C@H](O)CO)O1	NEU1	enzyme activity, inhibitor		IC50	> 500000 nM
CSCC[C@H](NC(=O)[C@@H](N)CCCNC(=N)N)C(=O)N[C@@H](Cc1ccc(O)cc1)C(=O)N[C@@H](CC(N)=O)C(=O)N1CCC[C@H]1C(=O)N[C@H](C(=O)N[C@@H](CC(C)C)C(=O)N[C@@H](CCCNC(=N)N)C(=O)N[C@@H](Cc1ccccc1)C(=O)O)C(C)C	HLA class I histocompatibility antigen, A alpha chain	cell-free assay		IC50	104 nM
CCC(C(=O)Nc1cc(NC2CCNCC2)ccc1C)n1cc(Cl)cc2nc(SCc3ccc(F)cc3)nc1-2 (centres unmarked)	USP28 (Homo sapiens, UniProt Q96RU2)	enzyme activity, inhibitor		IC50	> 100000 nM
COc1ncccc1-c1cnn2ccc(N3CCN(C(=O)OC(C)C)CC3)nc12	SBK3	binding, competition with immobilised ligand	1 µM	remaining binding	100%

Repeated from above:
Compound	target	test	conditions	measurement	result
O=C(O)C1=C[C@H](O)[C@@H](NCc2ccc(-c3ccccc3)cc2)[C@H]([C@H](O)[C@H](O)CO)O1	NEU1	enzyme activity, inhibitor		IC50	> 500000 nM
CSCC[C@H](NC(=O)[C@@H](N)CCCNC(=N)N)C(=O)N[C@@H](Cc1ccc(O)cc1)C(=O)N[C@@H](CC(N)=O)C(=O)N1CCC[C@H]1C(=O)N[C@H](C(=O)N[C@@H](CC(C)C)C(=O)N[C@@H](CCCNC(=N)N)C(=O)N[C@@H](Cc1ccccc1)C(=O)O)C(C)C	HLA class I histocompatibility antigen, A alpha chain	cell-free assay		IC50	104 nM
CCC(C(=O)Nc1cc(NC2CCNCC2)ccc1C)n1cc(Cl)cc2nc(SCc3ccc(F)cc3)nc1-2 (centres unmarked)	USP28 (Homo sapiens, UniProt Q96RU2)	enzyme activity, inhibitor		IC50	> 100000 nM
COc1ncccc1-c1cnn2ccc(N3CCN(C(=O)OC(C)C)CC3)nc12	SBK3	binding, competition with immobilised ligand	1 µM	remaining binding	100%
